Experimental data of several laboratories.
Parts stem from different laboratories: compare values within a part only. Substitutions count along the parent as printed.

Sample 1
Target: Sal-like protein 4, full length isoform B (SALL4, Homo sapiens, UniProt Q9UJQ4-2, residues 1-616)
Technique: universal PBM
Molecule type: double-stranded DNA, one strand shown
Sample: in vitro
Tested at: not given
Notes: 8-mer, flanks averaged, mean of replicates
Reading: higher = stronger binding
Construct (chain): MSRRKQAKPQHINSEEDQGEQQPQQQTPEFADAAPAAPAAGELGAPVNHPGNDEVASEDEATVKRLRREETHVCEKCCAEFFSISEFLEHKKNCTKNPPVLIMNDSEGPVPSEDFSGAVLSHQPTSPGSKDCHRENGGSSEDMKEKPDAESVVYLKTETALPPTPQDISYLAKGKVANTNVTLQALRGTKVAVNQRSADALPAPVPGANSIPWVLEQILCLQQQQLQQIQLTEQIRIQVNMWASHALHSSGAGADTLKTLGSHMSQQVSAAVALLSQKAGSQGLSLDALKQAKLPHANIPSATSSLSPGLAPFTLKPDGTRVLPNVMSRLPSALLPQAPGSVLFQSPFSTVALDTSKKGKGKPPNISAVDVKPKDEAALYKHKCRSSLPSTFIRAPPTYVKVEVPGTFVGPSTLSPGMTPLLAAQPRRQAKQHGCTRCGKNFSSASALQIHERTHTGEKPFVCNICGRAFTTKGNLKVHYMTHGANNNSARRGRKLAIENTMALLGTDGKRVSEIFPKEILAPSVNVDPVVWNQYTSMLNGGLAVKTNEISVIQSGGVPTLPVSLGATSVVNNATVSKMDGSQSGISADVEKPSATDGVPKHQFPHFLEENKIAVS
Sequence | E-score
CATCACGG | -0.0777
AGTCACAG | 0.019
AGCGGGAC | -0.274
AGCCTATA | 0.172
CAATTACG | 0.196
GCACATCC | 0.0225
ACGATTAT | 0.308
ATGGTATC | 0.112
AGAACGTA | 0.0297
TCTTCCAA | 0.146
GACTCTGA | -0.0449
CCCTGAGA | -0.286
AGGTTTTG | -0.0999
ATGTTTGC | 0.105
ACTAGCTC | -0.0625
AGCCCGAC | -0.323
AGATGGGG | -0.196
CCAGCCCA | -0.35

Sample 2
Target: RNA binding protein fox-1 homolog 2, RRM domain, GST-SBP tag (RBFOX2, Homo sapiens, UniProt O43251-10, residues 100-194)
Technique: RNA Bind-n-Seq
Molecule type: RNA
Sample: in vitro
Tested at: 365 nM
Notes: natural RNA segment, single round, ends assumed
Baseline: no-protein control
Reading: higher = stronger binding
All sequences stand within: GGGAGUUCUACAGUCCGACGAUC … UGGAAUUCUCGGGUGCCAA
Target sequence (chain): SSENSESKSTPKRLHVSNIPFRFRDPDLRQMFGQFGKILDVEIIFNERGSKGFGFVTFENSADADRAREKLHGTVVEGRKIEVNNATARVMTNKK
Sequence | RBNS enrichment (R)
UGUGAUGAUGCUGUGACAAUAAGUUUGAACCUUUUUUUUUGAAACAGCAGUCCCAGUAUUCUCAGAGCAUGUGUCAGAGUGUUGUUCCGUUAACCUUUUUGUAAAUACUG | 9.77
GAAGGUUUUACUGUAUUGUUGCACAACUUUAAGAUAAUUUUUGUCUCAAUGUCAACUUUUUUCACUGAAUAAAAAUUUAACUGGGUCAAGAAAACACCUCUUUGAAAAUC | 0.518
GGAGCGGGACUGCAACAAGCAAUGCCAGAUAACUGAGAAAUCAUGUUCUUUGUGGACUAUUUCAGACAACCAGGUUCCGACAGUCCAGCCCAGAACUUUUCCUUCUCAUU | 0.337
CUUUGACACAACAAGACACUCCAAUUGUGAUUUGAGUUGAGGAUCUCUGCCUGCCUUCCUGCCGUCCUUCCUUCUUCCCCGAUCCAUGCUACUUUUAGGGGCUGCGGAGA | 0.642
GUGAACAACAGUUGGUUUAAAAUAUGAGGGGCAAGGAGGAGGAUGCAUUUCAAAAGCUUGAUUGAUGUGUUCAGAGCUAAAUUAAGAGGAGUUUUCAGAUCAAAAACUGG | 5.7
AGGACCAAACAGAUUCAAGGAGCAUCAUUUAAGCUAAGAAGAGACCUAAGUGAUGAAACUAGCUGUAAGAAUGUAACAGGGGUUGUGUUUGAAAUAUUUAUAUUCCCAUC | 1.42
UAGGUGUCUUUGUCAUCCUUCUACUAUAAAUUGUUCUUUGCCAACCUGUACAGGUAGAUGAACCAGGCGAGAGUUUUAAUCAGCCUUUUCUUGUCCCCUUUGUAAGAAAG | 0.435
UAUUUGACAAGUAGAAGUUAACUUACUUGUCAGGGAGGGCAGACGUUUUUUUGUUCUGUUUCGUUUUUCAAAAUAAUGCUUUUUGCAAAAGAGGUAAGACUGAGACUAAA | 0.25
CACAUGACCCAGGAGAUUCCCAGACUCUGUUAGUAGUGUCUAGGAACUUGUGUUCCAGCUGAGGAGUGUCCCAGGUGUUAACGAGACUGAGGCCUAUUGCUGGAGUUCAG | 0.751
UUGGGGUAGGGAUUUCUGUCUUAUUUUCAAAUAGCCAGGGUUUUUCUUCAUUUUUUUGGUAUUUGCAUAAAGUGAACAAUAUCACAAGAAUUAAAUCACUGUGGACCCAU | 0.381
UAAUUGGAGGAAAUGAAUGCUGAUUGUAACGGAGUUAAUUUUAUUGAUAAUAAAUUAUACACUAUGAAACCGCCAUUGGGCUACUGUAGAUUUGUAUCCUUGAUGAAUCU | 10.3
UCCUGUCUCAGCCUCCCCAGUAGCUGAGAUUGCAGGCACAUGCCACCACGCCCAGCUAAUAUUUUGUAUUUUCAGUAGGGACGGGGUUACACCAUGUUGGCCAGGCUGGU | 0.54

Sample 3
Target: CCND2, cyclin fold, Cln2 fusion (human)
Technique: yeast growth competition, sequencing
Sample: yeast
Notes: weak parent motif
Baseline: not given
Reading: higher = stronger binding
Parent: ORC1 docking peptide (human); PRARKRLELGNLG; partner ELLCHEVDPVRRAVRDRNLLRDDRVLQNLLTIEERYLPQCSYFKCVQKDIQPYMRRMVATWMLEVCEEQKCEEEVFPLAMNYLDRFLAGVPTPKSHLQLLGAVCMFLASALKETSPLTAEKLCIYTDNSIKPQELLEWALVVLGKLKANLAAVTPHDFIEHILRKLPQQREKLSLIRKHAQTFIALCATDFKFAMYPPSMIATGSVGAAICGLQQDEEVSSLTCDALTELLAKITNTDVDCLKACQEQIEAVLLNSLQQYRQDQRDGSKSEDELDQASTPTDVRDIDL
Substitution | normalised enrichment score
PRARKRLELGNLA [G13A] | 0.197
PRAKKRLELGNLG [R4K] | 0.242
PRARKRLELLNLG [G10L] | 0.559
PRARKRLELGNVG [L12V] | 0.0536
PRARKRLELGALG [N11A] | 0.367
PRARKRLELTNLG [G10T] | 0.202
PRARKRLTLGNLG [E8T] | -0.126
PVARKRLELGNLG [R2V] | 0.339
PRARKRLELGNFG [L12F] | 0.00756
PRARKCLELGNLG [R6C] | 0.0502
YRARKRLELGNLG [P1Y] | 0.397
PRARKRLEHGNLG [L9H] | -0.0936
PRARERLELGNLG [K5E] | 0.013
PRARKGLELGNLG [R6G] | 0.474
PRARKRMELGNLG [L7M] | -0.108
LRARKRLELGNLG [P1L] | -0.0361
PRARIRLELGNLG [K5I] | 0.0128
PRARKRLELGNRG [L12R] | -0.126
PRARKFLELGNLG [R6F] | 0.22
KRARKRLELGNLG [P1K] | 0.435
PRARKRNELGNLG [L7N] | -0.278
PRARKRLELGNLC [G13C] | 0.417
PRARKRLELGGLG [N11G] | 0.198
PRARKRLELGHLG [N11H] | 0.0707
PRARKRLMLGNLG [E8M] | 0.0427

Sample 4
Target: Hepatocyte nuclear factor 3-alpha (Foxa1, Mus musculus, UniProt P35582, residues 1-468, full length assumed)
Technique: EMSA with sequencing
Molecule type: double-stranded DNA, one strand shown
Sample: in vitro
Tested at: 10 and 20 nM
Notes: whole designed probe, mean of two concentrations, ends assumed
Baseline: negative control set to 0
Reading: higher = stronger binding
All sequences stand within: GTGAGCGGTGCCCATTGATGGGGAAC … TTTCACTGGGATCGTGGGGAC
Residues (chain): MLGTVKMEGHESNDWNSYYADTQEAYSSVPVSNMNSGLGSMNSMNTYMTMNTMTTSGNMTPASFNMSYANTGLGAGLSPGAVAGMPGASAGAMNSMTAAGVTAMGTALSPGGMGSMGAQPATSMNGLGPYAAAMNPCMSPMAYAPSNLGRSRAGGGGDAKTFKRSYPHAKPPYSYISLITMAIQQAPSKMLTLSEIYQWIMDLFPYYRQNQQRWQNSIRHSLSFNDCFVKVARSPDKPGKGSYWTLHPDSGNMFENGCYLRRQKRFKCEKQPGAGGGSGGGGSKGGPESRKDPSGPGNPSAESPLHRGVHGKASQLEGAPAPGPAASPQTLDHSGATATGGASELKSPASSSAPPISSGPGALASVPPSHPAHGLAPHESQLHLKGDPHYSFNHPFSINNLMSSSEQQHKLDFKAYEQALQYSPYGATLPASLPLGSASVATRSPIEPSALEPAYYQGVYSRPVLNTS
Sequence | normalised bound fraction [ratio]
GCATGAGCCGCATTGCCCAGCAAAAGCCTCTAAGTGGTGATTTGCTGTTTGGCCTGAGAGTAATTTGGAGGCTGTGGCTGAGTCAGCTTCTCTTGTTGACTGAGCTGATGTCACTTTTGACCTTCATTGTTCCATAATTCCTTATGAAACTCTTCTGAAGCACTGAGAACCATCGACGGATCATATCAGCATG | 0.0172
TAAAGAATTTCTCAGTATAATTACCTCCAGCCAGGTTGCTTTTTTTAGCTCAAAAGAAAGATAAAAGGCGGAGTCCTGTAAATAAAGGGAATGTAAACATGGAGACTGAACCAAAGGCAAGTTACGGGGAGATAAGAATACCTGAAGAGAATTCGATTCAGCTTGATGGTTTTACAGAAGCATATGAAAGTGG | 0.295
AGAATGACCTCTCAGATTCATTGCAATGCAAACCCCCTCTGAGCCCATGAAAAAGTGTCCAGTGAATGTGCTCTGCAAACATGCAGGCACTATATAAACAAGAGGCAAATATTTTAAAAGGTGAAGAATGAGATACTTGTACTGCTGTGAGAGCGGTGGTTGGAATGTTGTGCCCCAGCAACATACTTTCCGT | 0.353
CAGCCTGCAGTGCGCTCAGTTAAACAATTCCAAATCAAGGAATTTTGTCTGATACAAGGAATTTGGGGTGTGTTTTCCTAACATGCACCCTGGGTAAATAGACTGCATGGGGGGGGGGCTTCCTGACCCAGCTGAAGCCAATATGCATTGCGGCCACAAGGTGGCGCGTCTGGGCCTGGCAAACCCCTGTGCT | 0.246
ATCTCGTAACAAATGGCTTCAGGGTGTTCAGCTGTTCTGCAGCTATGCTGAGGAATTCCTGCCTGTACAAAAGTCACTGTTCCAAGTCCTGTTAGATTACATTTTACTAATAAACCTCTGCCTCTGTGCTTAGCCTGAGGGGCTGCAGAGCTCCACACCCAGGAGTGGGCCCTCTGGGGATGCTGGGGTTTGA | -0.0469
TTAATTAAAGCTCAGATGTCTTTCCCAGGGCTGACTGTATTATTAGAGAATGCTTTTAGTAGATTCTCACATAGTTGGTAAAGGAATCTGGATGTTGACCTAGCTGTGATGTAACAGTAGCAACAGAGGGTGTCAGACAGCAGGGTCAATTTAACAAGGAAACACAGCTCATGTTACCAAAGGGTTTCTGTGT | 0.00342
ATGTGCTAAAAATACAAGACTTGCTTACGCAGAGAGCCGGGAGCTATGTTCCAGTGAGGGTGGAAACAAAAGCCTCAGTATAAGACTGTCAGGTGTTTACACAAGGGTGTGGTTTGCTCATGTGGCAACACGAGGTTGCTGGACTCCACATGCTGAGGCTCAAAGTAGAAATCACTGATCTTATGTCACATAT | 0.428
ATCTTCCCCCTCTTCCTTGCCCCACCAGCTCACCTTCCCGGGTTATTTGCAGATAGGAAAATAAATAAAGCCGGCATTCGTTAACCCTCTTCTGGCGCACCTGTTAAGTTGCTCTGGATGAATCATGGTCCTTTGGCGACGCCAGGCTCCGGGAGAGCAAAGCACCGTGTCAGGGCCATGATCCGGGGTGGCC | 0.343

A few entries again (sample 1):
Sequence | E-score
AGCGGGAC | -0.274
AGATGGGG | -0.196
ACGATTAT | 0.308
AGAACGTA | 0.0297
CCAGCCCA | -0.35
AGCCCGAC | -0.323
CCCTGAGA | -0.286
